Measured values pooled from the literature.
Lines come from different studies, so protocols differ.
WNK1: Serine/threonine-protein kinase WNK1 (WNK1, Homo sapiens, UniProt Q9H4A3)
TDP1: Tyrosyl-DNA phosphodiesterase 1 (TDP1, Homo sapiens, UniProt Q9NUW8)
Sequence of UniProt Q9NUW8 (whole entry, looked up): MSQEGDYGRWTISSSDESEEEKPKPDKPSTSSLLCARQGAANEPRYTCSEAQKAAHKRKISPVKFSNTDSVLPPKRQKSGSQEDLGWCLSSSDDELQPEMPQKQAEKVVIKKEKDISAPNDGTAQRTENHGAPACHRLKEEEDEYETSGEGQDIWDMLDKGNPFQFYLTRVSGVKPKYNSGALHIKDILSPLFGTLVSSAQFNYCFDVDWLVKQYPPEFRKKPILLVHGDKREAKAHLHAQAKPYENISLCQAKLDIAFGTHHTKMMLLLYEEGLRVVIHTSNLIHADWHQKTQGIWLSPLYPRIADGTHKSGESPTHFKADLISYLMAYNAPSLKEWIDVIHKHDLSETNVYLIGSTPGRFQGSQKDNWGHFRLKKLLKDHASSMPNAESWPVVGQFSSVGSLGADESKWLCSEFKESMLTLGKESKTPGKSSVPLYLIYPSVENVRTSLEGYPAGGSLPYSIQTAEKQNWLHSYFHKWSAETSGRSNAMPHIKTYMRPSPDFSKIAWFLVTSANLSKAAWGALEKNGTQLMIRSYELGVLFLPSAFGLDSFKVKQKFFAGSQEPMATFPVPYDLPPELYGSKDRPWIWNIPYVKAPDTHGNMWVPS

Under “activity vs control”, `O=C(Cc1ccc(OCc2ccccc2)cc1)NC1(C(=O)O)CCN(C(=O)c2ccc(-c3cccc(Cl)c3)cc2)CC1` is recorded as 95% (WNK1; enzyme activity, inhibitor; 10 µM).
`CCN1CCN(Cc2ccc(C(=O)Nc3ccc(C)c(NCc4cnc5[nH]ccc5c4OC)c3)cc2C(F)(F)F)CC1` gave a remaining binding of 81% (WNK1; binding, competition with immobilised ligand; 1 µM).
`CNC(=O)C[C@H](Cc1ccc(C#N)cc1)NC(=O)c1cc(-c2ccc(CN[C@H](C)c3ccc(C)cc3)o2)ccc1Cl`: “activity vs control” 94% (WNK1; enzyme activity, inhibitor; 1 µM).
For `COC(=O)c1ccc(C=NOCc2ccc(-c3nc4cc(-c5ccccc5)ccn4c3Nc3ccc(C(=O)O)cc3)cc2)cc1`, the inhibition was 59.3% (TDP1; enzyme activity, inhibitor; 100 µM, unpurified compound).
With `CCN1CCN(Cc2ccc(NC(=O)c3ccc(C)c(NC(=O)c4cncc(-c5cnn(C)c5)c4)c3)cc2C(F)(F)F)CC1` the remaining binding was 77% (WNK1; binding, competition with immobilised ligand; 1 µM).
`NC(=O)[C@@H](O)C[C@H]1CCc2sc3ncnc(O[C@H]4CC[C@H](N5CCOCC5)CC4)c3c21` has an inhibition of -1% (WNK1; enzyme activity, inhibitor; 10 µM).
With `C=CC(=O)N1CCc2ccc(-n3c(=O)ccc4cnc5ccc(-c6cnn(C)c6)cc5c43)cc21` the remaining binding was 100% (WNK1; KINOMEscan; 1 µM; baseline: DMSO control).
For `COc1cc(Nc2nccc(-c3cnn4nc(OC)ccc34)n2)cc(C(F)(F)F)c1`, the remaining binding was 98% (WNK1; binding, competition with immobilised ligand; 1 µM).
For `CC(C)=CC1OC(C)(C)C2C=C3C(=O)C(Cl)=CC(O)C3C3C(O)C4OC4C(=O)C132` (stereo not shown), the remaining binding was 56% (WNK1; cell-free assay, competition with immobilised ligand; 10 µM).
The remaining binding of `CNC1C[S+]2CC[S+]3CC[S+](C1)[Ru-4]321([N]=C=S)[n]2c3ccc(OC)cc3c3c4c(c5cc(F)c[n+]1c5c32)C(=O)NC4=O` (stereo not shown) is reported as 100% (WNK1; KinomeScan; 0.1 µM; baseline: untreated).
For `O=C(Nc1ccc(Oc2ncnc3[nH]cc(-c4ccccc4)c23)c(F)c1)c1c2n(n(-c3cc(F)ccc3F)c1=O)CCCC2`, the inhibition was 14% (WNK1; enzyme activity, inhibitor; 0.5 µM).
With `C=Cc1cccc(C=NOCc2ccc3nc(-c4ccccc4)c(Nc4ccc(C(=O)O)cc4)n3c2)c1` the inhibition was 8.2% (TDP1; enzyme activity, inhibitor; 100 µM, unpurified compound).
With `Cc1cnc2nc1Nc1cccc(c1)COC/C=C/COCc1cc(ccc1OCCN1CCOCC1)N2` the remaining signal was 85% (WNK1; cell-free assay; 0.1 µM).
For `COc1cc(Nc2nc(C)cc(-c3cnn4nc(OC)ccc34)n2)cc(C(F)(F)F)c1`, the remaining binding was 66% (WNK1; binding, competition with immobilised ligand; 1 µM).
With `CNC(=O)C1CCN(c2cc(C)c(F)cc2NC(=O)c2ccc(-c3cc(O)ccc3C)c(C)c2)CC1` the remaining binding was 94% (WNK1; binding, competition with immobilised ligand; 1 µM).
`COc1c(Cl)cccc1Nc1c(-c2ccncc2C#C[C@@]2(C)CCCN2C(=O)/C=C/CN(C)C)[nH]c2c1C(=O)NCC2` has a remaining binding of 98% (WNK1; binding, competition with immobilised ligand; 3 µM).
For `CN1CC[C@@H](COc2cnc(C#N)cc2-c2ccn3nc(NC(=O)C4CC4)cc3c2)C1`, the inhibition was 6% (WNK1; enzyme activity, inhibitor; 1 µM).
The inhibition of `C[C@H]1CN(C(=O)c2cn(-c3ccnc(N)n3)c3cc(C#CC4(O)CCCCC4)ccc23)CCN1` is reported as 2% (WNK1; cell-free assay, TR-FRET; 1 µM).
The remaining binding of `C=CC(=O)N1CCCC(n2c(=O)c3ncccc3n(Cc3ccc(Oc4ccccc4)cc3)c2=O)C1` (stereo not shown) is reported as 79% (WNK1; cell-free assay, competition with immobilised ligand; 1 µM).
For `NC(=O)C[C@H]1CCc2sc3ncnc(O[C@H]4CC[C@H](N5CCOCC5)CC4)c3c21`, the inhibition was 1% (WNK1; enzyme activity, inhibitor; 10 µM).
The inhibition of `C=CC(=O)N1Cc2nc(-c3cc(-c4cc(Cl)cnc4Cl)c(F)cc3F)n(-c3ccncn3)c2C1` is reported as -0.8% (WNK1; cell-free assay, inhibitor; 1 µM).
`Nc1ncc2c(n1)-c1c([nH]c3ccc(C4=CCOCC4)cc13)CCC2` has a remaining binding of 100% (WNK1; binding, competition with immobilised ligand; 1 µM).

Repeated from above:
Under “activity vs control”, `O=C(Cc1ccc(OCc2ccccc2)cc1)NC1(C(=O)O)CCN(C(=O)c2ccc(-c3cccc(Cl)c3)cc2)CC1` is recorded as 95% (WNK1; enzyme activity, inhibitor; 10 µM).
With `CNC(=O)C1CCN(c2cc(C)c(F)cc2NC(=O)c2ccc(-c3cc(O)ccc3C)c(C)c2)CC1` the remaining binding was 94% (WNK1; binding, competition with immobilised ligand; 1 µM).
With `CCN1CCN(Cc2ccc(NC(=O)c3ccc(C)c(NC(=O)c4cncc(-c5cnn(C)c5)c4)c3)cc2C(F)(F)F)CC1` the remaining binding was 77% (WNK1; binding, competition with immobilised ligand; 1 µM).
The remaining binding of `C=CC(=O)N1CCCC(n2c(=O)c3ncccc3n(Cc3ccc(Oc4ccccc4)cc3)c2=O)C1` (stereo not shown) is reported as 79% (WNK1; cell-free assay, competition with immobilised ligand; 1 µM).
